{"data": "Results gathered from unrelated publications", "note": "Each line is one published result; not all experiments were run side by side. ± gives the spread as reported."}
{"SMILES": "COc1cc2c(cc1OC)CN(CCCCn1ccc3cc(OCC[18F])ccc31)C2", "test system": "male CD-1 mouse, liver", "conditions": "intravenous, 2 min", "quantity": "tracer uptake", "value": "7.42 %ID/g"}
{"SMILES": "Cc1ccc(-c2ccc(-c3cc4sccc4o3)cn2)nc1", "test system": "aqueous HEPES buffer", "conditions": "pH 7.4, zinc-free ligand", "quantity": "absorption maximum", "value": "347 nm"}
{"SMILES": "O=C(O)C1OC(OC2C(COS(=O)(=O)O)OC(OC3C(C(=O)O)OC(OC4C(COS(=O)(=O)O)OC(OC5C(C(=O)O)OC(OC6C(COS(=O)(=O)O)OC(OC7C(C(=O)O)OC(OC8C(COS(=O)(=O)O)OC(OC9C(C(=O)O)OC(OC%10C(COS(=O)(=O)O)OC(OC%11C(C(=O)O)OC(Oc%12ccc([N+](=O)[O-])cc%12)C(O)C%11O)C(NS(=O)(=O)O)C%10O)C(OS(=O)(=O)O)C9O)C(NS(=O)(=O)O)C8O)C(OS(=O)(=O)O)C7O)C(NS(=O)(=O)O)C6O)C(OS(=O)(=O)O)C5O)C(NS(=O)(=O)O)C4O)C(OS(=O)(=O)O)C3O)C(NS(=O)(=O)O)C2OS(=O)(=O)O)C(O)C(O)C1OC1OC(COS(=O)(=O)O)C(O)C(O)C1NS(=O)(=O)O (centres unmarked)", "test system": "rats", "conditions": "intravenous, 3600 µg/kg/day for 7 days, day 8", "quantity": "thyroid/parathyroid to body weight ratio", "value": "0.0058 ± 0.0011"}
{"SMILES": "CC(C)C[C@H](NC(=O)C[C@H](O)[C@H](CC(C)C)NC(=O)[C@H](Cc1c[nH]cn1)NC(=O)CNC(=O)[C@@H](NC(=O)[C@H](C)NC(=O)[C@H](Cc1c[nH]c2ccccc12)NC(=O)[C@H](CCC(N)=O)NC(=O)[C@@H](Cc1ccccc1)NC(=O)CCNC(=O)CCNC(=O)CN1CCN(CC(=O)O)CCN(CC(=O)O)CCN(CC(=O)O)CC1)C(C)C)C(N)=O [lutetium-177 labelled]", "test": "MIRD", "test system": "mouse PC-3 xenograft, pancreas", "conditions": "intravenous, 50 MBq, with PA", "quantity": "absorbed dose", "value": "3.1 Gy"}
{"SMILES": "N#CCc1cccc(Cl)c1-c1ccc2[nH][11c](=O)[nH]c2c1", "test system": "mice, plasma", "conditions": "dose not given, 30 min", "quantity": "unchanged tracer fraction", "value": "35%"}
{"SMILES": "CC/C=C\\C/C=C\\C/C=C\\C/C=C\\C/C=C\\CCCCOC(CC)C(=O)O (centres unmarked)", "test": "[14C] label", "test system": "Wistar rat, blood", "conditions": "dose not given, 3 day", "quantity": "radioactivity concentration", "value": "not detected"}
{"SMILES": "COc1ccc2cc(-c3ccc(-c4ccc(C)cn4)nc3)oc2c1", "test system": "aqueous HEPES buffer", "conditions": "pH 7.4, zinc-free ligand", "quantity": "fluorescence lifetime", "value": "2.48 ns"}
{"SMILES": "CC(C)C[C@H](NC(=O)[C@H](C)NC(=O)[C@H](C)NC(=O)[C@H](CCC(N)=O)NC(=O)[C@H](C)NC(=O)[C@H](CO)NC(=O)[C@H](CC(C)C)NC(=O)[C@H](C)NC(=O)[C@@H](NC(=O)[C@H](C)NC(=O)[C@H](Cc1ccc(O)cc1)NC(=O)[C@H](CO)NC(=O)[C@H](CCCCN)NC(=O)[C@H](C)NC(=O)[C@H](Cc1ccccc1)NC(=O)[C@H](CCCCN)NC(=O)[C@H](C)NC(=O)[C@H](Cc1ccccc1)NC(=O)[C@H](CCCCN)NC(=O)[C@H](CCCCN)NC(=O)[C@H](C)NC(=O)[C@H](Cc1ccccc1)NC(=O)[C@H](CCCCN)NC(=O)[C@H](C)NC(=O)[C@H](Cc1ccccc1)NC(=O)[C@H](CCCCN)NC(=O)[C@H](CCCCN)NC(=O)[C@H](C)NC(=O)[C@H](Cc1ccccc1)NC(=O)[C@H](CCCCN)NC(=O)[C@H](C)NC(=O)[C@H](Cc1ccccc1)NC(=O)[C@@H](N)CCCCN)C(C)C)C(=O)N[C@@H](C)C(=O)N[C@@H](CCCNC(=N)N)C(=O)N[C@@H](CCCNC(=N)N)C(=O)O", "test system": "C57BL/6 mouse, male", "conditions": "intravenous, 8 mg/kg", "quantity": "volume of distribution", "value": "0.287 ± 0.032 L/kg"}
{"SMILES": "COc1ccc(-c2csc(N/N=C(\\C)c3cc(O)cc(O)c3)n2)cc1", "test": "LC-MS/MS", "test system": "rat plasma", "conditions": "3.75 ng/mL, 45 days, -20 °C", "quantity": "long-term stability change", "value": "-0.27%"}
{"SMILES": "CCCC(CCC(=O)O)NC(=O)c1ccc2c(c1)OCO2 (centres unmarked)", "test system": "male Sprague-Dawley rats, plasma", "conditions": "oral, 50 mg/kg of parent drug", "how to read": "relative to: 50 over 20 mg/kg dose", "quantity": "AUC(0-last) ratio", "value": 3.26}
{"SMILES": "Cc1ccc(/N=N/c2c(O)ccc3ccccc23)c(C)c1", "test system": "extracted rat blood QC samples", "conditions": "0.5 µg/L, 4 h, room temperature, short-term stability", "quantity": "measured concentration", "value": "0.487 µg/L"}
{"SMILES": "CCc1cc(C)n2nc(-c3ccc(OCC[18F])cc3)c(CC(=O)N(CC)CC)c2n1", "test system": "rat, plasma", "conditions": "first 2 min after injection", "quantity": "parent radioligand in plasma", "value": "94%"}
{"SMILES": "C[Si]1(C[C@H](CN)CC(=O)O)CCCC1", "test": "neuromuscular coordination", "test system": "Wistar rat male", "conditions": "oral, 300 mg/kg, 2 h", "quantity": "performance time", "value": "180 s"}
{"SMILES": "O=C(O)C1CN(Cc2ccc(-c3noc(-c4ccc(OCC[18F])c(C(F)(F)F)c4)n3)cc2)C1", "test system": "male Sprague-Dawley rat, spleen", "conditions": "intravenous, 120 min", "quantity": "tissue uptake", "value": "0.202 ± 0.033 %ID/g"}
{"SMILES": "Cc1cc2c(cc1C1(c3ncc(C(=O)O)cn3)CC1)C(C)(C)CCC2(C)C", "test system": "Sprague-Dawley rat, male", "conditions": "oral, 100 mg/kg, 1 h, sesame oil vehicle", "quantity": "blood cholesterol", "value": "99 ± 7.5 mg/dL"}
{"SMILES": "CC(C)c1cnc(-c2cc(Cl)ccc2F)cc1Nc1ccncc1C(=O)NC(CO)CO", "test": "refers to: intracranial tumour haemorrhage", "test system": "human patients", "conditions": "oral, dose not given, grade 1", "quantity": "patients with related SAE", "value": "0%"}
{"SMILES": "N=C(N)NCCC[C@@H]1NC(=O)[C@H](Cc2c[nH]c3ccccc23)NC(=O)[C@@H](CC2CCCCC2)NC(=O)[C@@H]2CCCN2C(=O)[C@@H](NC(=O)CCc2ccccc2)CCCNC1=O", "test system": "C57BL/6J mice, brain", "conditions": "intraperitoneal, 1 mg/kg", "quantity": "Tmax", "value": "19.8 min"}
{"SMILES": "CC(=O)O[C@@H]1[C@@H](OC(C)=O)[C@H](Sc2sc(C(=O)c3ccc(Br)cc3)c(N)c2-c2nc3ccccc3s2)OC[C@H]1OC(C)=O", "test system": "DMEM", "conditions": "72 h, coxsackievirus B4 assay host cells", "quantity": "maximum nontoxic concentration", "value": "100 µg/mL"}
{"SMILES": "CC(=O)N([O-])CCCCCNC(=O)CCC(=O)N([O-])CCCCCNC(=O)CCC(=O)N([O-])CCCCCN.[89Zr+4]", "test system": "mouse, bone", "conditions": "24 h", "quantity": "tracer uptake", "value": "0.17 %ID/g"}
{"SMILES": "CC(C)CCCC(C)CCCC(C)CCO[C@@H]1O[C@H](CO)[C@@H](O[C@H]2O[C@H](CO)[C@@H](O)[C@H](O)[C@H]2O)[C@H](O)[C@H]1O (some centres unmarked)", "test": "dynamic surface tension", "conditions": "0.0072 mmol/L", "quantity": "equilibrium surface tension", "value": "36.3 mN/m"}
{"SMILES": "C#CC(C)NC(=O)C(CC(C)(C)F)NC(c1ccc(-c2ccc(S(C)(=O)=O)cc2)cc1)C(F)(F)F (centres unmarked)", "test": "LC-MS UV trace", "test system": "aqueous buffer", "conditions": "23 h, pH 7.5, 37 °C, with: GSH 5 mM", "quantity": "GSH adduct formation", "value": "2%"}
{"SMILES": "COC(=O)c1ccc(-c2cn(Cc3cc(Cl)ccc3O[11CH3])nn2)cc1", "test": "PET, Logan plot, t*=40 min", "test system": "rhesus monkey, brain Amygdala", "conditions": "dose not given", "quantity": "distribution volume", "value": "0.552 mL/cm³"}
{"SMILES": "[11CH3]Oc1ccc(Cc2cn[nH]c2)nc1-c1cccc([N+](=O)[O-])c1", "test system": "rat, brain ex vivo", "conditions": "i.v., 30 min", "quantity": "parent radioligand fraction", "value": "63.3 ± 3%"}
{"SMILES": "CCC(=O)N1CCC(NC(=O)Nc2ccc(OC(F)(F)F)cc2)CC1", "test system": "male C57BL/6J mouse, blood", "conditions": "subcutaneous, 0.3 mg/kg, 168 h, day 7", "quantity": "blood concentration", "value": "~15 nM"}
{"SMILES": "Cn1c(=O)oc2ccc(-c3ccc(CC(C#N)NC(=O)C4CNCCCO4)c(F)c3)cc21 (centres unmarked)", "test system": "human", "conditions": "oral, 20 mg once daily, treatment-related AE, multiple ascending dose", "quantity": "skin exfoliation incidence", "value": "11.1%"}
{"SMILES": "CCCCCCCCCCCCCCCC(=O)N[C@@H](CCCCN)C(=O)N[C@H](C(=O)N[C@H](C(=O)N[C@@H](CCCCN)C(=O)N[C@@H](CO)C(=O)O)[C@@H](C)O)[C@@H](C)O", "test system": "10 mM HEPES buffer", "conditions": "pH 7.4", "quantity": "chemical stability", "value": "stable"}
{"SMILES": "COC(=O)C1OC(Oc2c(-c3ccccc3)oc3cc(O)c(O)c(O)c3c2=O)C(O)C(O)C1O (centres unmarked)", "test system": "BALB/c mouse, spleen", "conditions": "2 mg/kg", "quantity": "organ weight", "value": "0.78 ± 0.3 g"}
{"SMILES": "CC(C)(C)NC(=O)NC1CC=C(c2cc3c(Nc4cc5ncsc5cc4F)ncnc3s2)CC1 (racemic)", "test system": "human liver microsomes", "conditions": "1 µM", "quantity": "intrinsic clearance", "value": "< 12 mL/min/g protein"}
{"SMILES": "Cc1ccc(OCC(=O)N(Cc2cccs2)c2ccn[nH]2)cc1", "test system": "male beagle dog, plasma", "conditions": "oral, 10 mg/kg, single dose", "quantity": "Cmax", "value": "33.7 ng/mL"}
{"SMILES": "CC(C)(O)c1ncc([S@](N)(=O)=NC(=O)Nc2c3c(cc4c2CCC4)CCC3)s1", "test system": "healthy human subjects", "conditions": "oral, dose not given", "quantity": "subjects reporting TEAEs", "value": "70%"}
{"SMILES": "N[C@H]1CC[C@H](CNc2ncc(Cl)c(Nc3cc(C4CC4)[nH]n3)n2)CC1", "test system": "Oct1/2 knockout mouse", "conditions": "dose not given", "how to read": "relative to: without ABT over with ABT", "quantity": "blood clearance change", "value": "-28.2%"}
{"SMILES": "[Ru+2].c1ccc(-c2cccc(-c3ccccn3)n2)nc1.c1ccc2nc(-c3nc4ccccc4s3)ccc2c1.c1cnccn1", "test system": "water", "conditions": "470 nm light", "quantity": "photosubstitution quantum yield", "value": 0.0368}
{"note": "Excerpt of the above:"}
{"SMILES": "[Ru+2].c1ccc(-c2cccc(-c3ccccn3)n2)nc1.c1ccc2nc(-c3nc4ccccc4s3)ccc2c1.c1cnccn1", "test system": "water", "conditions": "470 nm light", "quantity": "photosubstitution quantum yield", "value": 0.0368}
{"SMILES": "CC(C)C[C@H](NC(=O)C[C@H](O)[C@H](CC(C)C)NC(=O)[C@H](Cc1c[nH]cn1)NC(=O)CNC(=O)[C@@H](NC(=O)[C@H](C)NC(=O)[C@H](Cc1c[nH]c2ccccc12)NC(=O)[C@H](CCC(N)=O)NC(=O)[C@@H](Cc1ccccc1)NC(=O)CCNC(=O)CCNC(=O)CN1CCN(CC(=O)O)CCN(CC(=O)O)CCN(CC(=O)O)CC1)C(C)C)C(N)=O [lutetium-177 labelled]", "test": "MIRD", "test system": "mouse PC-3 xenograft, pancreas", "conditions": "intravenous, 50 MBq, with PA", "quantity": "absorbed dose", "value": "3.1 Gy"}
